# Experimental data from different studies.
# Each numbered part is a random draw from the data of one study; scales do not carry over between parts. Substitutions count along the parent as printed.

# Study 1 — method: Sort-seq; measured: YFP reporter; matrix: E. coli; setting: PhoQ-PhoP variant library; added: 10 µM Mg2+; reference: high Mg2+ state; direction: higher = stronger signaling
# Molecule: PhoQ, residues 284 288 289 292 302 303 AAQSYM
target,fold induction
"PhoP, residues 12 14 15 18 19 NQCAL (Escherichia coli, UniProt P23836)",5.04
"PhoP, residues 12 14 15 18 19 TQAML (Escherichia coli, UniProt P23836)",24.8
"PhoP, residues 12 14 15 18 19 LHTVL (Escherichia coli, UniProt P23836)",8.32

# Study 2 — target: CCNB2, cyclin fold, Cln2 fusion (human); method: yeast growth competition, sequencing; matrix: yeast; setting: weak parent motif; reference: not given; direction: higher = stronger binding
# Starting sequence: CCP110 docking peptide (human); EKVKRRLDLDIDG; partner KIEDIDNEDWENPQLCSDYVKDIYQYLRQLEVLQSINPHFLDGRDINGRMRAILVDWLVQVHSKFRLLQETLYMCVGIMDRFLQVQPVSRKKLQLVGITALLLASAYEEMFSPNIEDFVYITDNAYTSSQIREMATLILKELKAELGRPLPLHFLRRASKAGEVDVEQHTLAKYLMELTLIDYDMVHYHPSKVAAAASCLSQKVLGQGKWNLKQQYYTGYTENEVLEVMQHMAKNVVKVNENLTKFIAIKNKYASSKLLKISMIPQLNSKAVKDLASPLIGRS
Change,normalised enrichment score
R5K,0.0363
D10A,0.467
R5A,-0.0702
K4A,0.206
R5A L7A,-0.0299
E1A,0.476
G13A,0.323
L9A,-0.00655

# Study 3 — method: aptamer microarray, sandwich; molecule type: DNA with 2'F-ANA; matrix: in vitro; concentration: 200 nM; added: Cy3 exosite-II aptamer, 400 nM; direction: higher = stronger binding; strand: GGTTGGTGTGGTTGG
# Target: Prothrombin, mature alpha-thrombin (F2, Homo sapiens, UniProt P00734)
# Setting: whole 15-mer aptamer, many near background
Modification,mean fluorescence intensity
2'F-ANA at 2 4 5 6 8 9 11 12,120 a.u.
2'F-ANA at 3 4 7 9 11 12,824 a.u.
2'F-ANA at 2 4 5 7 8 10 13,91.3 a.u.
2'F-ANA at 2 3 6 15,764 a.u.
2'F-ANA at 2 3 6 9 10 14 15,237 a.u.
2'F-ANA at 3 4 5 9 10 12 14 15,49.2 a.u.
2'F-ANA at 5 8 9 15,87.9 a.u.
2'F-ANA at 2 4 7 8 11 12 15,563 a.u.
2'F-ANA at 4 5 6 11 14,43.1 a.u.
2'F-ANA at 1 4 6 7 10 12 14 15,56.8 a.u.

# Study 4 — method: DHFR PCA, deep sequencing; matrix: yeast; added: (+)-ABA 58 µM; reference: wild-type fitted maximum; direction: higher = stronger binding
# Target: ABI1, truncated, D143A, DHFR fusion (Arabidopsis thaliana)
# Setting: methotrexate growth selection, single substitutions
# Starting sequence: PYL1, truncated, DHFR fusion (Arabidopsis thaliana); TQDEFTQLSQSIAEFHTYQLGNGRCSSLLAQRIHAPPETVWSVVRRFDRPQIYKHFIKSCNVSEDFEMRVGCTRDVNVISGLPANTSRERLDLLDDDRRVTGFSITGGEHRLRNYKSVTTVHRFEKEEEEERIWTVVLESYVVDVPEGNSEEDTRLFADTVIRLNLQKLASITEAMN; partner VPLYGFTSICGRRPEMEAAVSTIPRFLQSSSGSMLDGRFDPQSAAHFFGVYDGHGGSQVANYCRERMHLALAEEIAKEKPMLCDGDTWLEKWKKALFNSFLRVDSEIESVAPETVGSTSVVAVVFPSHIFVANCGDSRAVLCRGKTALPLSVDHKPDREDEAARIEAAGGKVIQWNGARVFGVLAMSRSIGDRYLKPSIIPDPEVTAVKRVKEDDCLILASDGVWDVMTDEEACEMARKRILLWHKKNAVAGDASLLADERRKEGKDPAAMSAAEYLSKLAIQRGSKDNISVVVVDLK
Change,relative binding score
Y18Q,71.9%
Y141G,-0.583%
M68E,59.6%
L91K,12.8%
S80Q,16%
E139C,80.1%
L8M,83.9%
V161C,58.8%

# For quick reference, copied from above (study 4):
Change,relative binding score
M68E,59.6%
Y141G,-0.583%
